Measured values of several laboratories.
Compare with care: the assays were run in different laboratories. Several values in a cell are separate wells, animals, samples, runs or records. ± gives the spread as reported.

Structure (SMILES)	assay	test system	setting	tissue uptake
COc1ccc(Nc2nc(Nc3ccc(OCCOCCOCC[18F])cc3)ncc2Br)cc1	–	ICR mice, S180 tumour-bearing, heart	intravenous, 370 kBq, 15 min	1.61 ± 0.24 %ID/g
CC(C)C[C@H](NC(=O)[C@@H](CCCCNC(=O)[C@@H](Cc1ccccc1)NC(=O)CCCCCCCNC(=O)CN1CCN(CC(=O)O)CCN(CC(=O)O)CCN(CC(=O)O)CC1)NC(=O)[C@H](Cc1ccc(O)cc1)NC(=O)[C@H](CO)NC(=O)[C@H](Cc1c[nH]c2ccccc12)NC(=O)[C@H](Cc1c[nH]cn1)NC(=O)[C@@H]1CCC(=O)N1)C(=O)N[C@@H](CCCNC(=N)N)C(=O)N1CCC[C@H]1C(=O)NCC(N)=O [indium-111 labelled]	biodistribution	male athymic nude mice, DU-145 prostate cancer xenograft, heart	intravenous, 0.037 MBq, 2 h post-injection	0.11 ± 0.06 %ID/g
Cc1cc(C)n(CCN(CCN)CCCCCCNC(=O)[C@@H](N)Cc2c[nH]cn2)n1.[99Tc+].[C-]#[O+].[C-]#[O+].[C-]#[O+]	–	BALB/c nude mice, A549 xenograft, heart	intravenous, 15 min	1.23 ± 0.16 %IA/g
[123I]c1ccc2nc(-c3ccc(-n4ccnn4)nc3)cn2c1	–	Wistar rat, heart	intravenous, 24 h	not detected
COc1ccc2c(c1)C(C)(C)C(/C=C/C1=C(Oc3ccc(C(=O)NCCCCOc4cc(CN(Cc5ccccn5)Cc5ccccn5)cc(CN(Cc5ccccn5)Cc5ccccn5)c4)cc3)C(=C/C=C3/N(CCCCS(=O)(=O)[O-])c4ccc(OC)cc4C3(C)C)CCC1)=[N+]2CCCCS(=O)(=O)[O-].O=[N+]([O-])[O-].O=[N+]([O-])[O-].[99Tc+].[C-]#[O+].[C-]#[O+].[C-]#[O+].[Zn+2]	–	BALB/c mouse, Staphylococcus aureus myositis, pancreas	12 h	1.35 %ID/g and 1.51 %ID/g and 1.58 %ID/g and 0.42 %ID/g
O=C(NCC1OC2CCC=CCCC2O1)c1ccc([18F])nc1 (stereo not shown)	–	healthy female BALB/c nude mice, bladder	intravenous, 7.4 MBq per mouse, 120 min	2.1 ± 2.1 %ID/g
COc1cccc(OC)c1-c1cc(C(=O)NC2(C(=O)O)C3CC4CC(C3)CC2C4)nn1-c1ccc(C(=O)N(C)CCCN(C)CCCN(C)C(=O)[C@H](CCCCNC(=O)[C@H](CC(C)C)NC(=O)C2OC2C(=O)O)NC(=O)CN2CCN(CC(=O)[O-])CCN(CC(=O)[O-])CCN(CC(=O)[O-])CC2)cc1C(C)C.[177Lu+3] (mixture of isomers)	–	mouse, HT-29 xenograft, muscle	24 h post injection	0.41 %ID/g
O=C([O-])CN1CCN(CC(=O)[O-])CCN(CC(=O)NC[C@H]2CC[C@H](C(=O)N[C@H](Cc3cnc4ccccc4c3)C(=O)NCCCC[C@H](NC(=O)N[C@@H](CCC(=O)O)C(=O)O)C(=O)O)CC2)CCN(CC(=O)[O-])CC1.[64Cu+2]	ex vivo gamma counting	22Rv1 tumour-bearing mice, intestine	intravenous, 0.74 MBq, 1 h post-injection	14 %ID/g
[11CH3]N1CCC(NC(=O)c2cc(-c3c(O)cc(O)cc3Oc3ccc([N+](=O)[O-])cc3)on2)CC1	–	Wistar rat, female, healthy, lungs	intravenous, 10 min	1 ± 0.3 %ID
O=C([O-])CN1CCN(CC(=O)[O-])CCN(Cc2cccc(C(=O)[O-])n2)CC1.[177Lu+3]	–	BALB/c mouse, large intestine	intravenous, 1 h	0.17 ± 0.06 %ID/g
